Measurements from different studies.
Each line is one published result; not all experiments were run side by side. Numbers after ± are the reported error.
Organism: Pseudomonas aeruginosa

The MIC of `COc1ccc2c(c1)C=[N+]1C3CCCCC3[N+]3=Cc4c(ccc5ccc(OC)cc45)[O][Au-]13[O]2.F[P-](F)(F)(F)(F)F` (stereo not shown) is reported as greater than 20 µM (bacterial growth, broth microdilution; carbapenem-resistant; 24 h).
For `CCCCCCCCCc1nc2cc(Cl)ccc2c(=O)n1CCN`, MIC read “inactive” (PAO1).
With `N=C(N)NCCC[C@H](NC(=O)[C@H](Cc1c[nH]c2ccccc12)NC(=O)[C@H](CCC(N)=O)NC(=O)[C@H](Cc1c[nH]c2ccccc12)NC(=O)[C@H](CCCNC(=N)N)NC(=O)[C@@H](N)CCCNC(=N)N)C(=O)NCCCC[C@H](NC(=O)[C@H](CCCNC(=N)N)NC(=O)[C@H](Cc1c[nH]c2ccccc12)NC(=O)[C@H](CCC(N)=O)NC(=O)[C@H](Cc1c[nH]c2ccccc12)NC(=O)[C@H](CCCNC(=N)N)NC(=O)[C@@H](N)CCCNC(=N)N)C(=O)NCCCCCC(=O)N[C@@H](CSSC[C@H](NC(=O)CCCCCNC(=O)[C@H](CCCCNC(=O)[C@H](CCCNC(=N)N)NC(=O)[C@H](Cc1c[nH]c2ccccc12)NC(=O)[C@H](CCC(N)=O)NC(=O)[C@H](Cc1c[nH]c2ccccc12)NC(=O)[C@H](CCCNC(=N)N)NC(=O)[C@@H](N)CCCNC(=N)N)NC(=O)[C@H](CCCNC(=N)N)NC(=O)[C@H](Cc1c[nH]c2ccccc12)NC(=O)[C@H](CCC(N)=O)NC(=O)[C@H](Cc1c[nH]c2ccccc12)NC(=O)[C@H](CCCNC(=N)N)NC(=O)[C@@H](N)CCCNC(=N)N)C(N)=O)C(N)=O` the MIC was 11 µM (broth microdilution; ATCC 27853; 24 h, 37 °C).
`CCn1cc(C(=O)NCCNCCO)c(=O)c2cc(OC)c(OCc3cccc(Br)c3)cc21` gave an MIC of less than 0.25 µg/mL (ATCC 27853; ≥80% growth inhibition).
`CC(C)CCCCC(=O)N[C@@H](CCN)C(=O)N[C@H](C(=O)N[C@H](CCN)C(=O)N[C@H]1CCNC(=O)[C@H]([C@@H](C)O)NC(=O)[C@H](CCN)NC(=O)[C@H](CCN)NC(=O)[C@H]([C@@H](C)O)NC(=O)[C@@H](CC(C)C)NC(=O)[C@H](CCN)NC1=O)[C@@H](C)O` gave an MIC of 0.5 µg/mL (broth microdilution; ATCC 27853, polymyxin susceptible, CAMHB; 18 h, 37 °C).
For `CC[C@@H](C)[C@@H](NC(=O)[C@@H](C)NC(=O)[C@@H](CCCCN)NC(=O)[C@@H](CC(C)C)NC(=O)[C@@H](CC(C)C)NC(=O)[C@H](NC(=O)[C@@H](CCCCN)NC(=O)[C@@H](CC(C)C)NC(=O)[C@@H](C)NC(=O)[C@@H](CCCCN)NC(=O)[C@@H](CCCCN)NC(=O)[C@@H](CCCCN)NC(=O)[C@@H](C)NC(=O)[C@@H](CCCCN)NC(=O)[C@@H](CO)NC(=O)[C@@H](Cc1ccccc1)NC(=O)[C@H](NC(=O)[C@@H](CCCCN)NC(=O)[C@@H](CC(C)C)NC(=O)[C@@H](Cc1ccccc1)NC(=O)[C@@H](CO)NC(=O)[C@@H](CCCCN)NC(=O)[C@@H](Cc1c[nH]c2ccccc12)NC(=O)[C@@H](CCCCN)NC(C)=O)[C@H](C)O)[C@H](C)O)C(=O)N[C@H](CO)C(=O)N[C@H](CCCCN)C(N)=O`, the MIC was 0.2 µM (broth microdilution; PA14; 24 h, 37 °C).
`CC(C)C(O)C(NC(=O)[C@H](Cc1ccc(O)cc1)NC(=O)C(Cc1ccc(O)cc1)[N+](C)(C)C)C(=O)N[C@@H](C)C(=O)O` (stereo partly shown) gave an MIC of greater than 100 µM (CLSI broth microdilution; PAO1).
For `Cc1ccc2ccc3ccc(C)nc3c2n1.Cc1ccc2ccc3ccc(C)nc3c2n1.O.[Cl-].[Cl-].[Cl-].[Yb+3]`, the MIC was 125 µg/mL.
For `CNC(C)C1CCC(N)C(OC2C(N)CC(N)C(OC3OCC(C)(O)C(NC)C3O)C2O)O1` (stereo not shown), the MIC was 2 µM (broth microdilution; SP1 clinical isolate; 18 h, 37 °C).
`CCn1cc[n+](CC)[c]1[Au-][Cl]` has an MIC of 85.1 ± 20.1 µM (broth dilution; PA7 DSM 24068; 20 h, 37 °C).

Excerpt of the above:
With `N=C(N)NCCC[C@H](NC(=O)[C@H](Cc1c[nH]c2ccccc12)NC(=O)[C@H](CCC(N)=O)NC(=O)[C@H](Cc1c[nH]c2ccccc12)NC(=O)[C@H](CCCNC(=N)N)NC(=O)[C@@H](N)CCCNC(=N)N)C(=O)NCCCC[C@H](NC(=O)[C@H](CCCNC(=N)N)NC(=O)[C@H](Cc1c[nH]c2ccccc12)NC(=O)[C@H](CCC(N)=O)NC(=O)[C@H](Cc1c[nH]c2ccccc12)NC(=O)[C@H](CCCNC(=N)N)NC(=O)[C@@H](N)CCCNC(=N)N)C(=O)NCCCCCC(=O)N[C@@H](CSSC[C@H](NC(=O)CCCCCNC(=O)[C@H](CCCCNC(=O)[C@H](CCCNC(=N)N)NC(=O)[C@H](Cc1c[nH]c2ccccc12)NC(=O)[C@H](CCC(N)=O)NC(=O)[C@H](Cc1c[nH]c2ccccc12)NC(=O)[C@H](CCCNC(=N)N)NC(=O)[C@@H](N)CCCNC(=N)N)NC(=O)[C@H](CCCNC(=N)N)NC(=O)[C@H](Cc1c[nH]c2ccccc12)NC(=O)[C@H](CCC(N)=O)NC(=O)[C@H](Cc1c[nH]c2ccccc12)NC(=O)[C@H](CCCNC(=N)N)NC(=O)[C@@H](N)CCCNC(=N)N)C(N)=O)C(N)=O` the MIC was 11 µM (broth microdilution; ATCC 27853; 24 h, 37 °C).
